Results from different studies.
Numbered parts are unrelated; each lists some results of a single study. Positions count from the first letter of the parent shown.

Series 1
Target: ABI1, truncated, D143A, DHFR fusion (Arabidopsis thaliana)
Technique: DHFR PCA, deep sequencing
Sample: yeast
Setting: methotrexate growth selection, single substitutions
Together with: (+)-ABA 17 µM
Relative to: wild-type fitted maximum
Direction: higher = stronger binding
Starting sequence: PYL1, truncated, DHFR fusion (Arabidopsis thaliana); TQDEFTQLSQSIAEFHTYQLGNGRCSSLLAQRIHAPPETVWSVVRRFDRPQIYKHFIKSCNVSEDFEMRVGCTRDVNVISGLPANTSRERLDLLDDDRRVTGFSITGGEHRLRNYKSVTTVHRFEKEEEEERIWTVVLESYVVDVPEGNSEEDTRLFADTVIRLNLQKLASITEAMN
| Substitution | relative binding score [%] |
| --- | --- |
| E109R | 55.2 |
| T120P | 1.98 |
| Q51Y | 44.4 |
| T73N | 61.5 |
| N22C | 74 |
| A30D | 41.4 |
| V118F | 22.2 |
| S171Q | 103 |
| A158R | -1.46 |
| F66G | 83.6 |
| A35T | 34.7 |
| G21K | 82.5 |
| E14P | 15 |
| P50G | 2.64 |
| K58R | 86.6 |

Series 2
Target: CEBPA, bZIP domain (human)
Technique: DHFR protein complementation
Sample: yeast
Setting: single substitutions, most at no-binding floor
Relative to: wild-type JUN-FOS pair
Direction: higher = stronger binding
Starting sequence: JUN, bZIP domain (human); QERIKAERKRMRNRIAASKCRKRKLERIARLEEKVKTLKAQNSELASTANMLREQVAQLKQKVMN; partner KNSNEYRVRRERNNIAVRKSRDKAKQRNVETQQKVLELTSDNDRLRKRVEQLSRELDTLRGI
| Substitution | binding fitness [natural log] |
| --- | --- |
| A29R | -1.48 |
| T48F | -1.48 |
| Q41C | -1.44 |
| E32A | -1.39 |
| Q41V | -1.46 |
| V56A | -1.45 |
| Q41D | -1.45 |
| S47Y | -1.46 |
| K39H | -1.48 |
| E44I | -1.49 |
| K34W | -1.52 |
| R30I | -1.39 |
| E33M | -1.44 |
| T48W | -1.36 |

Series 3
Target: Sal-like protein 4, full length isoform A (SALL4, Homo sapiens, UniProt Q9UJQ4, residues 1-1053)
UniProt Q9UJQ4, sequence (whole entry, looked up): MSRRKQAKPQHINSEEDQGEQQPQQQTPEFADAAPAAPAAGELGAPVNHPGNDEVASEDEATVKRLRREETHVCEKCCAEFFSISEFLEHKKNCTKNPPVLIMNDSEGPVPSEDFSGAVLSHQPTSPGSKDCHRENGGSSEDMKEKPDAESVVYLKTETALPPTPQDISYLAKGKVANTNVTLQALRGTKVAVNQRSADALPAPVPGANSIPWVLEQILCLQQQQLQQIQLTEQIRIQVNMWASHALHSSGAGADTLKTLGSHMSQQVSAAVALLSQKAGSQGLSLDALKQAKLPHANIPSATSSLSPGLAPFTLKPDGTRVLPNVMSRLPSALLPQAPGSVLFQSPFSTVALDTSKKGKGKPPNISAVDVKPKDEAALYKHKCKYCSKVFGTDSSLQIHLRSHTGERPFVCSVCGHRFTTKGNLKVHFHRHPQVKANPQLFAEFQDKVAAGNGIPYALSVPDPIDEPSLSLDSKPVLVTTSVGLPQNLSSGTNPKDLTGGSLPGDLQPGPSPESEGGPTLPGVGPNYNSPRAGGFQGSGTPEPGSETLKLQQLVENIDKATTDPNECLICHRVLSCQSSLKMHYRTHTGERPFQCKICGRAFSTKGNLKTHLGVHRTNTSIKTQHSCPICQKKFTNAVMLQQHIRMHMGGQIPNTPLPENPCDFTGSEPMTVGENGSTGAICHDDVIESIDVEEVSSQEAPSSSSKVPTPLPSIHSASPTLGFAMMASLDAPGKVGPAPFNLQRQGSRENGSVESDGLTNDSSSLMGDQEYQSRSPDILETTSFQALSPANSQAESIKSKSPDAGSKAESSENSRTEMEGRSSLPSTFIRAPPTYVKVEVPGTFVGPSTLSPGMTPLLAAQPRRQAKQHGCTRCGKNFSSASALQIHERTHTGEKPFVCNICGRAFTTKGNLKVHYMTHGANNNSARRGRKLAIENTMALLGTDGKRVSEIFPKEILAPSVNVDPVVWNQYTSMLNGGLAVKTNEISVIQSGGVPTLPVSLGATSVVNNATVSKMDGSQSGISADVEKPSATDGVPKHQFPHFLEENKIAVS
Technique: universal PBM
Form: double-stranded DNA, one strand shown
Sample: in vitro
Concentration: 600 nM
Setting: 8-mer, flanks averaged, mean of replicates
Direction: higher = stronger binding
| Strand | E-score |
| --- | --- |
| GCAACCAA | 0.0357 |
| GTTGCGAA | 0.0186 |
| CCAATTGA | 0.161 |
| CTTAAATA | 0.228 |
| ACTTCTAG | -0.138 |
| GGTTATCA | 0.0844 |
| ATGGTAGG | -0.104 |
| GGTGGTTA | -0.0901 |
| ACTTTTGC | 0.125 |
| TAGACAAA | 0.0994 |
| AGAACGCC | -0.18 |
| GGCTTCAC | -0.151 |
| ATTACTCC | 0.0668 |
| AGGAGCTG | -0.238 |
| AAATGGTC | 0.0978 |
| GAGCAGGA | -0.0316 |
| AATGCCCC | -0.225 |
| TACGCGTA | -0.00123 |
| CCCCAATA | 0.13 |
| CTACACTC | -0.107 |

Series 4
Target: Interferon regulatory factor 5, full length, phosphomimetic (IRF5, Homo sapiens, UniProt Q13568-2, residues 1-514, K96S/S451D/S453D/S456D/S462D)
Technique: protein-binding microarray
Form: double-stranded DNA, one strand shown
Sample: in vitro
Concentration: 250 nM
Setting: 60-bp whole probe
Together with: salmon DNA 0.4 mg/ml
Relative to: random background probes
Direction: higher = stronger binding
All sequences stand within: GCCTAGCAC … GTCTTGATTCGCTTGACGCTGCTG
| Strand | log fluorescence [z-score] |
| --- | --- |
| GACGATATCAGTCTAGAGACGTGCTAG | 1.29 |
| CTGTTTTTGCTTTCCTTTATGTGCTAG | 2.21 |
| GACGGCCTCCTTCTCCTGACGTGCTAG | -0.497 |
| TCAGCTCTGTGCATAGGACTGTGCTAG | -0.341 |
| GACGAACTGAGACTCGAGACGTGCTAG | -0.361 |
| TCAGTTTCTCCTTTGTAACTGTGCTAG | 3.8 |
| GAGAGAGCTTGTCTGCAGCCGTGCTAG | -0.473 |
| GGCGGTATCCTACTGCTGACGTGCTAG | -0.393 |
| TTTGCTCTGTGCATAGGTCTGTGCTAG | -0.0833 |
| TTAGAATTGAGACTGGATTAGTGCTAG | -0.163 |
| GACGATTTCAGTTTCGAGATGTGCTAG | 7.31 |
| GACGATTTCAGACTGGAGACGTGCTAG | 0.127 |
| GACGATTTCAGACTGGAGAGGTGCTAG | 0.0509 |
| GACGGTTTCCTACTGCTGACGTGCTAG | 0.569 |
| GACGGTCTCGGTCTCGGAACGTGCTAG | 0.253 |
| TTAGAACTGGGGACTGGTTTAGTGCTA | -0.318 |
| TCTCCTACAGGTTCTCTGAGAGTGCTA | -0.106 |
| ATGGCTCTCTGGACTGTGTGTGTGCTA | -0.785 |
| TTAAGTTTCGACTATCGGTTAGTGCTA | 10.4 |
| TTAGATTTCAGACTGGATTAGTGCTAG | 0.345 |

Series 5
Target: RING finger protein unkempt homolog, zinc fingers 1-6, SBP tag (UNK, Homo sapiens, UniProt Q9C0B0, residues 30-357)
UniProt Q9C0B0, sequence (30-357, looked up): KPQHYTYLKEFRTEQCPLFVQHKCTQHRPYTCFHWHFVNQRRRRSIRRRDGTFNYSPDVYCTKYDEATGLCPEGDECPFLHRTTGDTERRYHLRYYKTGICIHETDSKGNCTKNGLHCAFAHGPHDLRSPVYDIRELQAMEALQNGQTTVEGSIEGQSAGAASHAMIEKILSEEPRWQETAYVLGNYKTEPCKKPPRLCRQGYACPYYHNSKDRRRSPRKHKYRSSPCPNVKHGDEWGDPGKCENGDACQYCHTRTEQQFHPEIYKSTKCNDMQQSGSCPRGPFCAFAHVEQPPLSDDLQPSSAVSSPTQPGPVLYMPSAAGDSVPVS
Technique: RNA Bind-n-Seq
Form: RNA
Sample: in vitro
Concentration: 100 nM
Setting: RNA with constant flanks, vertebrate orthologous sites, ends assumed
Relative to: input RNA pool
Direction: higher = stronger binding
| Strand | bound/input enrichment |
| --- | --- |
| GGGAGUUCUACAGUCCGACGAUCUUACAGUCAUUGAUGGACUCUAUUUUUUUAUUAUUACUUGGACCUUGGUCGUUUUUAUACUAGCAAAAUGUCUUGUUUUAAUUUGUGUUUUUUUUUGGGGGGGUGGGAGUGAACUUGCUGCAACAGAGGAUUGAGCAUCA | 1.82 ratio |
| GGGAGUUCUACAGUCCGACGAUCAUGCAGGAAUGGCAUGUGAUGUUUGAAAUACCCACAGUACUCACUUUGUCCAAACAAUUCUACUAAUUGCCUAGAUAUACUUUUUCUUACCUGUUAUUUAUCAAUUUUUCCCAGUAUUUUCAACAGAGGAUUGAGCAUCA | 1.17 ratio |
| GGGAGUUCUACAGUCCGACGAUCAGCACCCUUUCAUACUGUCCUGGACCAGGGCCACAGACCGACAUCUCAAGCGGCCUGUGUUUAGAACAUUUUUUACAUCAUUGUGUCUGAGCCUCUCAGAGCCAGUGUAUAGGUCUUUGCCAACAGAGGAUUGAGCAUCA | 0.796 ratio |
| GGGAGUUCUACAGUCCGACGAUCGAAUUGAACAAAAACGUUUCCACUGGGUUUUGCCUGUUUGAAAAUACGUACCUGAGCACAUAGAGCUUUUUAAUAGCACUAACCAAUGCCUUUUUAGAUGUAUUUUUGAUGUAUAUAUCUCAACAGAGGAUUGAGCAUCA | 0.714 ratio |
| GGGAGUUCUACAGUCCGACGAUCACCAUGUACCCUGCUGUAUAAUAGACAACCGAGACACUUGUCAACUAUUGAUACAGGUGUUAGUCCCAAACCACUUUUUAUAUGUUUUAAAUUUUGAAAUUCAAGUGUAUCUGCCAUAACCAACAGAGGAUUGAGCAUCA | 1.31 ratio |
| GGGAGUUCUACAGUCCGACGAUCGCACUGCUUGUGCAAAUUUCACAACACUGAAUGCAAAGUAGAAAUUUUCAUAGUCACAAUAAGGUAGCUGUAGGGUAAUAUUGCCAUGGUUUUACUCAUGUGCAGGUUUUGAAAAUGUAUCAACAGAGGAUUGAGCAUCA | 0.849 ratio |
| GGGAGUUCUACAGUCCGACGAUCGGCGCCGUCCUCCCACUCCGGCCCAGGCUCAGGGACCAGGUGUAGCUGGAGGACCUGCAUUUCAAACCGUUUUCUAAAUGGUCCAGGAAGAGAUGUGACGAAGACCGCAUCUCAAAGUCGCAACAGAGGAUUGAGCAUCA | 0.246 ratio |
| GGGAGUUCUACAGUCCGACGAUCUUACAGUCAUUGAUGGACUCUAUUUUUUUAUUAUUACUUGGACCUUGGUCGUUUUUAUACUAGCAAUGAAAAAUGUUUUAAUUUGUUUUGUUUUUUUCUUUUUCGGGGGGGGUACGGGGUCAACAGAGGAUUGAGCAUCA | 3.17 ratio |
| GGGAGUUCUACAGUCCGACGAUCAUUAGGUCAUGACCCGUAUAGAUUAGGUCAUGAUGCUUACAGGUUAGGACAGGACCCUUACAGAUUAGGCCAUGAUCCUUAUAGACUAACUCCUGAUCCCUAUAGGAUGUCACCUAGGCCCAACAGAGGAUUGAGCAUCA | 0.259 ratio |
| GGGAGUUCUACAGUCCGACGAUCCUCUAGUUCUUAAAAACCAACACUCGUAAAAGAUUUAGGAAAAAAGUUUACAACAUAAUCUAGUUUACCGAAGAAGCCUUGUGCUAGAAUACUUUUUAAAAAGUAUUUUUGAAUACCAUUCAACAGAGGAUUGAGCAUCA | 1.09 ratio |
| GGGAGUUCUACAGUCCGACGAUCGCACAUGCCGCUAUCACCAAAAGCAAACUGCCACUUUUCAAAUUUCAUUCAGAGCCGUUUUAGUGUUUCCUAUUCCCUACCCUUCCCACUGCUUUCAAUGAUGAAAUAUCCUAAGUUCUCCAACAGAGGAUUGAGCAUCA | 2.57 ratio |

Series 6
Target: CCNB3, cyclin fold, Cln2 fusion (human)
Technique: yeast growth competition, sequencing
Sample: yeast
Setting: strong parent motif
Relative to: not given
Direction: higher = stronger binding
Starting sequence: RBL2 docking peptide (human); STTRRRLFVENDS; partner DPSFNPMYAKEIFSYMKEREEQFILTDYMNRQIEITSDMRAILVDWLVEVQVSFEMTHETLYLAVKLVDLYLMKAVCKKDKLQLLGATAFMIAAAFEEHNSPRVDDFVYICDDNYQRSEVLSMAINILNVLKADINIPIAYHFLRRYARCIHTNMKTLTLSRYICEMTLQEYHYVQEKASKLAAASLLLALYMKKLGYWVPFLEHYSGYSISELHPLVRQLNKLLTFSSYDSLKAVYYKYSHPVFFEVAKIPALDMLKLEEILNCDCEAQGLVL
| Substitution | normalised enrichment score |
| --- | --- |
| STDRRRLFVENDS [T3D] | 0.127 |
| STTRRRLQVENDS [F8Q] | 0.45 |
| STIRRRLFVENDS [T3I] | 2.05 |
| STTRRRLFVENDV [S13V] | 0.706 |
| STTRRRLFNENDS [V9N] | 1.27 |
| STSRRRLFVENDS [T3S] | -0.11 |
| STTRRRLFVEEDS [N11E] | 1.15 |
| STTRRALFVENDS [R6A] | 0.45 |
| STTRRRSFVENDS [L7S] | 0.182 |
| STTRRRLFVENDK [S13K] | 0.347 |
| STTRRRLCVENDS [F8C] | 0.258 |
| SMTRRRLFVENDS [T2M] | 1.14 |
| STTRRRLFVENDE [S13E] | 1.27 |

Some of these lines once more (series 4):
| Strand | log fluorescence [z-score] |
| --- | --- |
| GAGAGAGCTTGTCTGCAGCCGTGCTAG | -0.473 |
| GGCGGTATCCTACTGCTGACGTGCTAG | -0.393 |
| GACGGCCTCCTTCTCCTGACGTGCTAG | -0.497 |
| TCAGCTCTGTGCATAGGACTGTGCTAG | -0.341 |
| TTTGCTCTGTGCATAGGTCTGTGCTAG | -0.0833 |
| GACGATTTCAGTTTCGAGATGTGCTAG | 7.31 |
| TCAGTTTCTCCTTTGTAACTGTGCTAG | 3.8 |
| TTAAGTTTCGACTATCGGTTAGTGCTA | 10.4 |
| GACGGTTTCCTACTGCTGACGTGCTAG | 0.569 |
| TCTCCTACAGGTTCTCTGAGAGTGCTA | -0.106 |
| GACGATTTCAGACTGGAGACGTGCTAG | 0.127 |
| GACGGTCTCGGTCTCGGAACGTGCTAG | 0.253 |
| GACGATTTCAGACTGGAGAGGTGCTAG | 0.0509 |
| TTAGAACTGGGGACTGGTTTAGTGCTA | -0.318 |
| CTGTTTTTGCTTTCCTTTATGTGCTAG | 2.21 |
